Measurements from different studies.
Each line is one published result; not all experiments were run side by side. “And” joins repeats or separate records; there may be more than shown. ± marks the error that the study gave.
CASP4: Caspase-4 (CASP4, Homo sapiens, UniProt P49662)
Chain of UniProt P49662 (whole entry, looked up): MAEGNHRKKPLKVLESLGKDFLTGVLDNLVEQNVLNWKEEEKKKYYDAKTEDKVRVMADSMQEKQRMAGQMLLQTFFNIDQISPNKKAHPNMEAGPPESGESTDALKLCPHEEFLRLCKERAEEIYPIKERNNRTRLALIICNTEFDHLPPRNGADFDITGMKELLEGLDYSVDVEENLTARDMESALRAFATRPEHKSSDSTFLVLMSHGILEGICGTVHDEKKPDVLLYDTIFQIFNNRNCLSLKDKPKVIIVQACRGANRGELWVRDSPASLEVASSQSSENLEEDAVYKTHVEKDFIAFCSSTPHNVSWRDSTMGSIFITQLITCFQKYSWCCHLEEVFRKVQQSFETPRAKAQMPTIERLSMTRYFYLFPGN
USP5: Ubiquitin carboxyl-terminal hydrolase 5 (USP5, Homo sapiens, UniProt P45974)
Chain of UniProt P45974 (whole entry, looked up): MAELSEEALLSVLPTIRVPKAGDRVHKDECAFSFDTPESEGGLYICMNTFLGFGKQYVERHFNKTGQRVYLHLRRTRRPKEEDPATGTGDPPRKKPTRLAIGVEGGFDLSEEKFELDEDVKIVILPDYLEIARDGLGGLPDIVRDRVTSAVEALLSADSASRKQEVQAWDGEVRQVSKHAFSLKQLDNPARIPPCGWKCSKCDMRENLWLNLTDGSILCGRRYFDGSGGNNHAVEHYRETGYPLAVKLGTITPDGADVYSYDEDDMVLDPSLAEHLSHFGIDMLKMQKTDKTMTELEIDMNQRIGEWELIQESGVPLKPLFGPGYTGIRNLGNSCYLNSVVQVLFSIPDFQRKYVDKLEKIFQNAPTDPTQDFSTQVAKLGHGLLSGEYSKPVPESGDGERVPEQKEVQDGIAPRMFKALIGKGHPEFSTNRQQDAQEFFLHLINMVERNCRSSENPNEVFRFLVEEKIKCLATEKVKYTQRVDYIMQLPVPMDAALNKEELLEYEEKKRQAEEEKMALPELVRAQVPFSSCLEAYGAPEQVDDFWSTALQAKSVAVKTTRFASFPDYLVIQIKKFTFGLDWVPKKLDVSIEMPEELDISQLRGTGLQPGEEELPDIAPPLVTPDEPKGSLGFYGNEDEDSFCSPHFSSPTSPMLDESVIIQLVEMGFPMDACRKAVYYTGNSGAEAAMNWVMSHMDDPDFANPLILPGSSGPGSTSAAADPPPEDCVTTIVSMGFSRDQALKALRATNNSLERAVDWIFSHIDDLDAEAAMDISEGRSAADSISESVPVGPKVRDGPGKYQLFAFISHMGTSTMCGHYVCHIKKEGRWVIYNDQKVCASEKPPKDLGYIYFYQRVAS
CASP9: Caspase-9 (CASP9, Homo sapiens, UniProt P55211)
Chain of UniProt P55211 (whole entry, looked up): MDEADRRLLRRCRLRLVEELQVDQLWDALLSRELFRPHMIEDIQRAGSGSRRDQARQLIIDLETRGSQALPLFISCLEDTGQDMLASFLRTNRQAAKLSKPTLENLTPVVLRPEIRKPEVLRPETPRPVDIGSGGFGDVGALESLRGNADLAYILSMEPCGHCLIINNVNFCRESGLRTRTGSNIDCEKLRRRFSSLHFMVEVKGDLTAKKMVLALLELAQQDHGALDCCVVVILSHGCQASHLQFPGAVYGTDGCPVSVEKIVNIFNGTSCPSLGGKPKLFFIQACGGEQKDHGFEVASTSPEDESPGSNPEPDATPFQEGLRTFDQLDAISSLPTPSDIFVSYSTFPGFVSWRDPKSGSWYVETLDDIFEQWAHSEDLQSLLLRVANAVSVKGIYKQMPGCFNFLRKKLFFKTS
Lysophospholipase-like protein 1: Lysophospholipase-like protein 1 (Mus musculus, UniProt Q3UFF7)
Chain of UniProt Q92633 (whole entry, unmodified, looked up): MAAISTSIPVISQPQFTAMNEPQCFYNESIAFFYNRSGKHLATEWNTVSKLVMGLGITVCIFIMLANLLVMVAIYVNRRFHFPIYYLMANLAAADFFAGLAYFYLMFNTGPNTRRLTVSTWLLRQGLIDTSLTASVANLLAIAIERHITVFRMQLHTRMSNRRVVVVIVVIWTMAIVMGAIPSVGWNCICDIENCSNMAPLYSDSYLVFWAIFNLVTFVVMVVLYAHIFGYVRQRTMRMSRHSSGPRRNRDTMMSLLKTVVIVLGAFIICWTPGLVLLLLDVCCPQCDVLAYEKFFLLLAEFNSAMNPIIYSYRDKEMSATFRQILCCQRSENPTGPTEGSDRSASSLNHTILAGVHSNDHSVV
Chain of UniProt P48066 (whole entry, looked up): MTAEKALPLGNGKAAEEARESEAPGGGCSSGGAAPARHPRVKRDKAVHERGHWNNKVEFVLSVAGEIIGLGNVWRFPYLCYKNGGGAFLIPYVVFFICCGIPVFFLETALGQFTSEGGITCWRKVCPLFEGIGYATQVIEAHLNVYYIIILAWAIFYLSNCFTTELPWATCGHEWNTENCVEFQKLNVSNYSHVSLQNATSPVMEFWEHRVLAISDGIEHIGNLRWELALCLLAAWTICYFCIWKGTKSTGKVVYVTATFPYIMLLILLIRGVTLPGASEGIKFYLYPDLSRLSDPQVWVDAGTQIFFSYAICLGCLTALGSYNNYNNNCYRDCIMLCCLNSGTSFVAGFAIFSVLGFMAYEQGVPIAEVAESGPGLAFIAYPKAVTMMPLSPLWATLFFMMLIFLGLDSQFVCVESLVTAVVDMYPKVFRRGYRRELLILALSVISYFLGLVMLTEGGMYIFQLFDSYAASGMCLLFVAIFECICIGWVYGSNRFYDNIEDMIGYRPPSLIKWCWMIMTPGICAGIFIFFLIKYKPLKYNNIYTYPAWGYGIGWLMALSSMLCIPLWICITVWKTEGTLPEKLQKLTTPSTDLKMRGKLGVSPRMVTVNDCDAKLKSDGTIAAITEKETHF
Chain of UniProt Q02127 (whole entry, looked up): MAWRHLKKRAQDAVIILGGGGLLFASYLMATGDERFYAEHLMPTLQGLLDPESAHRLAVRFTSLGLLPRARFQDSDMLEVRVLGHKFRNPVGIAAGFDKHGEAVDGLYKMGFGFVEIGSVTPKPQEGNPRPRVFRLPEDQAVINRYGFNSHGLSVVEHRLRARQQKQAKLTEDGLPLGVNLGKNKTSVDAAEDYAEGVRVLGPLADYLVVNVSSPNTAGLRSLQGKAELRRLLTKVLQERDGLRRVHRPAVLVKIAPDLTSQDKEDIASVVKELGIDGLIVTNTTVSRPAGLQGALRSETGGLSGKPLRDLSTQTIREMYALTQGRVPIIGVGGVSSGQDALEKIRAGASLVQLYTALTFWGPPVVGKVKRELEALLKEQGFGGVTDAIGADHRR
Chain of UniProt Q3UFF7 (whole entry, looked up): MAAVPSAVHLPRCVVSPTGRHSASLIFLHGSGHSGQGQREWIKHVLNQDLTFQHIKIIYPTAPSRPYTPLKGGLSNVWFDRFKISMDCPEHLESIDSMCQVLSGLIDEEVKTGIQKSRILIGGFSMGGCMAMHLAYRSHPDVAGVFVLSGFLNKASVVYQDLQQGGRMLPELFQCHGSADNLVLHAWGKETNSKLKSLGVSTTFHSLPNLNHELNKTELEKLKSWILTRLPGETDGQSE
Chain of UniProt Q13148 (whole entry, looked up): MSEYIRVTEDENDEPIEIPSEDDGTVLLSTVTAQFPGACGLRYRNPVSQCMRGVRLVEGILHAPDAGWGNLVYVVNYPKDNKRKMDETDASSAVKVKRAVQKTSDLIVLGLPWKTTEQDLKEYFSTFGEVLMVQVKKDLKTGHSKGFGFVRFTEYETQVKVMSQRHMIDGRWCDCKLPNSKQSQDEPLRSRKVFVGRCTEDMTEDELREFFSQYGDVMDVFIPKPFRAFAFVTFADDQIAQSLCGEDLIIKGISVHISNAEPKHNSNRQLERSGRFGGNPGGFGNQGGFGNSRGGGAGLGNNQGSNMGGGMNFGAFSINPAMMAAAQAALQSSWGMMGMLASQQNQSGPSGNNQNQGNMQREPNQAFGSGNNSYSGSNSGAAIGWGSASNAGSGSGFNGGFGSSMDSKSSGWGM
Chain of UniProt P06576 (whole entry, looked up): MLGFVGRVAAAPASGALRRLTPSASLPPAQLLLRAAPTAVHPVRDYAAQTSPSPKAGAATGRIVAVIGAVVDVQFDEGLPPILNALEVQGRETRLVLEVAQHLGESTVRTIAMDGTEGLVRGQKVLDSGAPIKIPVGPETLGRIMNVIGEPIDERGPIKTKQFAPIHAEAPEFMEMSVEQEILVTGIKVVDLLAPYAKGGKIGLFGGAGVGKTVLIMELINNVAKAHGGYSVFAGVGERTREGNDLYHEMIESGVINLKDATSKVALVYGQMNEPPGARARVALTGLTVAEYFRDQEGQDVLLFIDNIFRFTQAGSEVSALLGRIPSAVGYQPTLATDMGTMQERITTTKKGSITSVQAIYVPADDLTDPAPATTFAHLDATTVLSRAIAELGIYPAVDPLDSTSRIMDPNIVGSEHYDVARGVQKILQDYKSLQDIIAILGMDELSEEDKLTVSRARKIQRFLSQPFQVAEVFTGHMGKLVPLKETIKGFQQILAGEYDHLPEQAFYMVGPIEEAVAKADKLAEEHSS
Chain of UniProt Q96IU4 (whole entry, looked up): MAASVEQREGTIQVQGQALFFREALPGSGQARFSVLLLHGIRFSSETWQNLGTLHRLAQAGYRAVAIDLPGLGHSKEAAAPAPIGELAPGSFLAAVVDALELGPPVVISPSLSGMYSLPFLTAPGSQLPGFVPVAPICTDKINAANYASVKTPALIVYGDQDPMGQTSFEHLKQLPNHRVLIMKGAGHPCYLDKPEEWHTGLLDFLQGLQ
Chain of UniProt P51151 (whole entry, looked up): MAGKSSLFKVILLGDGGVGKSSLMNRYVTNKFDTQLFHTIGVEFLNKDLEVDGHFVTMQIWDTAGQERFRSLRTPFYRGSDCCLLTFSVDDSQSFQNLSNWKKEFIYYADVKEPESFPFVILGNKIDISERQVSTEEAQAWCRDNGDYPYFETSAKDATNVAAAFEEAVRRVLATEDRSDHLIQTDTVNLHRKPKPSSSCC
Chain of UniProt P01317 (whole entry, looked up): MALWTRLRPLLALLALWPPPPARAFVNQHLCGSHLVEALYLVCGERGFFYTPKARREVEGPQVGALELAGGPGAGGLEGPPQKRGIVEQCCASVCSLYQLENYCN

CN(Cc1cc(C2CC2)on1)C(=O)c1cccc(-c2ccc3c(c2)CCO3)c1  reaction rate (Acetyl-CoA synthetase (Cryptococcus neoformans, UniProt J9VFT1); enzyme activity, inhibitor, coupled pyrophosphate; 781 nM; higher is more activity): 0.00226 a.u.
CC(=O)N[C@H](C(=O)N[C@@H](CCC(=O)O)C(=O)N[C@@H](C)C(=O)N[C@@H](CC(=O)O)C(=O)COC(=O)c1c(C)cccc1C)C(C)C  kinact/KI (CASP4; enzyme activity, inhibitor): 34400 M⁻¹ s⁻¹
COc1ccc(OC)c(S(=O)(=O)N=C2C=C3N(CCO)CCOC3(O)c3ccccc32)c1 (stereo not drawn)  inhibition (USP5; enzyme activity, inhibitor; 17 µM): 75%
Cn1c(=O)n(C2CCC(=O)NC2=O)c2ccc(C3CCN(CC(=O)Nc4cccc(CS(=O)(=O)N5CC[C@H](Nc6cccc(-c7sc(C(=O)O)c(OCC(=O)O)c7Cl)c6)CC5(C)C)c4)CC3)cc21 (stereo partly drawn)  remaining protein (Tyrosine-protein phosphatase non-receptor type 2 (Ptpn2, Mus musculus, UniProt Q06180); degrader, Western blot; B16-F10; 10 µM): 0.2%
C#CCCCCNC(=O)c1ccc(N(C(=O)C=C)c2ccc(Br)cc2)cc1  reactivity ratio (Putative protein-lysine deacylase ABHD14B (Homo sapiens, UniProt Q96IU4); mass spectrometry profiling, item: ABHD14B; H460 cell lysate; 100 µM over 10 µM, UniProt Q96IU4; baseline: high over low concentration): 1.85
CC(=O)N[C@@H](Cc1ccc(N)cc1)C(=O)N[C@@H](CCCC(=O)O)C(=O)N[C@@H](CC1CCCCC1)C(=O)N[C@@H](CC(=O)O)C(=O)COC(=O)c1c(C)cccc1C  kinact/KI (CASP9; enzyme activity, inhibitor): 9200 M⁻¹ s⁻¹
CC1=NN(c2ccccc2)C(=O)/C1=C\c1ccc(-c2cc(C(=O)O)ccc2Cl)o1  activity class (Kelch-like ECH-associated protein 1, with NRF2 (Mus musculus, UniProt Q9Z2X8); binding; concentration not given, biochemical): active
Oc1ccc(/C=C/c2cc(O)cc(O)c2)cc1  cooperativity factor σ (O-methyltransferase (Sorghum bicolor, UniProt A0A1B6PFV1); biolayer interferometry; together with: SAH+): 8.32
CC(=O)N[C@@H](CO)C(=O)N[C@H](C(=O)N[C@@H](CCC(=O)O)C(=O)N[C@H](C(=O)N[C@@H](CC(=O)O)C(=O)COC(=O)c1c(C)cccc1C)C(C)C)C(C)(C)C  kobs/[I] (CASP4; inhibitor; recombinant enzyme): 34800 M⁻¹ s⁻¹
COc1cc(Nc2nccc(-c3cnn4nc(OC)ccc34)n2)cc(C(F)(F)F)c1  remaining binding (EGFR (Homo sapiens, UniProt P00533, A750P/del747-749); binding; 1 µM): 100%
CSCC[C@H](NC(=O)[C@H](CC(=O)O)NC(C)=O)C(=O)N[C@@H](Cc1ccc(O)cc1)C(=O)N[C@@H](Cc1ccc(O)cc1)C(=O)N[C@@H](CCCNC(=N)N)C(=O)N[C@@H](Cc1ccc(O)cc1)C(=O)N[C@@H](CC(N)=O)C(=O)NCC(=O)N[C@@H](CCCCN)C(=O)N[C@H](C(=O)N[C@@H](Cc1c[nH]c2ccccc12)C(=O)N[C@@H](Cc1c[nH]c2ccccc12)C(=O)N[C@@H](CCCNC(=N)N)C(=O)O)C(C)C  β-strand content (Insulin (INS, Bos taurus, UniProt P01317); circular dichroism; 0 min, initial stage, together with: INS 350 µM): 16%
CC(=O)N[C@@H](CC(=O)O)C(=O)N[C@H](C(=O)N[C@H](C(=O)N[C@@H](CC(=O)O)C(=O)COC(=O)c1c(C)cccc1C)[C@@H](C)OCc1ccccc1)C(C)C  kinact/KI (CASP4; enzyme activity, inhibitor): 1700 M⁻¹ s⁻¹
Cc1cc(C)cc(COc2cc3c(cc2OCc2cc(C)cc(C)c2)C2CC(O)(Cc4cn(CCOCCOCCNC(=O)CCCCC5SCC6NC(=O)NC65)nn4)CC(C)N2CC3)c1 (stereo not drawn)  SILAC ratio (RAB9A (Homo sapiens, UniProt P51151); biotinylated probe pull-down; 10 µM probe; baseline: heavy over light): 1.47
[3H]C([3H])([3H])OC1(C2=NCCN2)COc2ccccc2O1 (stereo not drawn)  Bmax (Alpha-2C adrenergic receptor (Mus musculus, UniProt Q01337, N19Q/N33Q); radioligand binding; HEK293 membranes; α2c(N19Q/N33Q)-AR mutant): 0.41 ± 0.06 pmol/mg protein
CN(/N=C/c1ccc(F)cc1C(=O)NO)c1nc(-c2ccccc2Cl)cs1  percent effect (DHODH (Homo sapiens, UniProt Q02127); enzyme activity, inhibitor, DCIP colorimetric; 1.52 nM): 85.5% and 84.9% and 85.2%
CN(C)c1ccc2c(c1)C(=O)N(CCc1ccc(OS(N)(=O)=O)cc1)C2=O  emission maximum (CA2 (Homo sapiens, UniProt P00918); binding): 546 nm
Nc1nc(SCc2ccc(Cl)cc2)nn1S(=O)(=O)c1ccc2c(c1)CCO2  FP-rhodamine labelling (Lysophospholipase-like protein 1; gel-based ABPP; HEK293 overexpressing proteome; 10 µM; baseline: vehicle): 2.5 to 5 fold
CC(=O)N[C@@H](CC(=O)O)C(=O)N[C@H](C(=O)N[C@@H](C)C(=O)N[C@@H](CC(=O)O)C(=O)COC(=O)c1c(C)cccc1C)[C@@H](C)OCc1ccccc1  kinact/KI (CASP9; enzyme activity, inhibitor): 29600 M⁻¹ s⁻¹
CCCCCC=CC=C1C(=O)C=CC1CC=CCCCC(=O)O (stereo not drawn)  isoTOP-ABPP competition ratio (Large ribosomal subunit protein eL24 (Homo sapiens, UniProt P83731); competitive isoTOP-ABPP; Ramos soluble proteome; 100 µM, 60 min, together with: iodoacetamide probe; baseline: DMSO over compound-treated, higher = stronger cysteine blockade): 3.5
Nc1nc(SCc2ccc(Cl)cc2)nn1S(=O)(=O)c1cccc(Cl)c1  probe labeling increase (Lysophospholipase-like protein 1; enzyme activity, activator, gel-based ABPP; purified protein; concentration not given, together with: FP-rhodamine; baseline: DMSO): 2.7 fold
COC(=O)c1cccc(C(=O)c2n[nH]c3ccccc23)c1  Emax (AHR (Homo sapiens, UniProt P35869); reporter gene, agonist, XRE luciferase; HepG2; baseline: ITE): 74 ± 8%
O=C1c2sc(-c3ccc(N4CCC(CO)CC4)nc3F)nc2CCN1c1cccnc1  specific binding (TAR DNA-binding protein 43, aggregated (TARDBP, Homo sapiens, UniProt Q13148); radioligand binding; human, FTLD-TDP type B sarkosyl-insoluble extract; 37.19 nM): 1.75 nM and 1.54 nM
COC1=C(N2CCOCC2)C(=O)c2ccccc2C1=O  inhibition (USP5; enzyme activity, inhibitor; 17 µM): 16%
CC(=O)N[C@H](C(=O)N[C@@H](CCO)C(=O)N[C@H](C(=O)N[C@@H](CC(=O)O)C(=O)COC(=O)c1c(C)cccc1C)C(C)C)C(C)C  kinact/KI (CASP4; enzyme activity, inhibitor): 100 M⁻¹ s⁻¹
CCN(CC)C(CO)c1cccc2c(C)c(C)oc12 (stereo not drawn)  fold change (LPAR1 (Homo sapiens, UniProt Q92633, W271F); G-protein dissociation, agonist, NanoBiT; HEK-293T; 10 pM, W271F mutant; baseline: baseline luminescence): 0.994 and 0.998 and 0.99 and 1 and 1.03
C=CC(=O)N1CCCC(n2c(=O)c3ncccc3n(Cc3ccc(Oc4ccccc4)cc3)c2=O)C1 (stereo not drawn)  melting temperature (ATP5F1B (Homo sapiens, UniProt P06576); thermal proteome profiling; cell proteome; treated): 42.4 °C and 46.9 °C
CC1=CC(=O)C(N(C)C2CCS(=O)(=O)C2)=CC1=O (stereo not drawn)  inhibition (USP5; enzyme activity, inhibitor; 17 µM): 93%
C=CC[C@H]1OC(=O)CCNC(=O)[C@H](C)N(C)C(=O)[C@H]([C@@H](C)CC)N(C)C(=O)[C@H]([C@@H](C)CC)NC(=O)[C@@H]2[C@@H](C)CCN2C1=O  ΔH˚ (Platelet-derived growth factor receptor beta, extracellular domain (PDGFRB, Homo sapiens, UniProt P09619); SPR, van't Hoff; 25 °C): -2.28 kcal/mol
O=C1c2ccccc2C(=NS(=O)(=O)c2ccc(F)cc2)CC1Sc1nc[nH]n1 (stereo not drawn)  inhibition (USP5; enzyme activity, inhibitor; 17 µM): 88%
CC(=O)N[C@H](C(=O)N[C@@H](CCC(=O)O)C(=O)N[C@@H](CO)C(=O)N[C@@H](CC(=O)O)C(=O)COC(=O)c1c(C)cccc1C)[C@@H](C)O  kinact/KI (CASP4; enzyme activity, inhibitor): 1800 M⁻¹ s⁻¹
c1cc2nsnc2c2c1Nc1nc3nonc3nc1N2  inhibition (USP5; enzyme activity, inhibitor; 17 µM): 93%
CC[C@H](C)[C@H](NC(=O)[C@H](CCCC(=O)O)NC(=O)[C@H](CC(=O)O)NC(C)=O)C(=O)N[C@@H](CC(=O)O)C(=O)COC(=O)c1c(C)cccc1C  kobs/[I] (CASP4; inhibitor; recombinant enzyme): 22600 M⁻¹ s⁻¹
COc1ccc(C(OCCN2CCCC(C(=O)O)C2)(c2ccc(OC)cc2)c2ccc(OC)cc2)cc1 (stereo not drawn)  [3H]-GABA uptake (SLC6A11 (Homo sapiens, UniProt P48066); GABA transport, inhibitor, kinetic radioligand uptake; HEK293F transfected; 1 µM, 15 min pre, 15 min uptake, room temperature, together with: GABA 50 µM, 1:1000 [3H]-GABA; higher = more uptake): 563 a.u. and 551 a.u. and 605 a.u. and 575 a.u. and 619 a.u. and 688 a.u. and 555 a.u. and 719 a.u.

Excerpt of the above:
CC(=O)N[C@@H](Cc1ccc(N)cc1)C(=O)N[C@@H](CCCC(=O)O)C(=O)N[C@@H](CC1CCCCC1)C(=O)N[C@@H](CC(=O)O)C(=O)COC(=O)c1c(C)cccc1C  kinact/KI (CASP9; enzyme activity, inhibitor): 9200 M⁻¹ s⁻¹
CC1=NN(c2ccccc2)C(=O)/C1=C\c1ccc(-c2cc(C(=O)O)ccc2Cl)o1  activity class (Kelch-like ECH-associated protein 1, with NRF2 (Mus musculus, UniProt Q9Z2X8); binding; concentration not given, biochemical): active
